# Experimental data gathered from unrelated publications.
# “And” joins repeats or separate records; there may be more than shown.
# UniProt Q96PY6, sequence (whole entry, looked up): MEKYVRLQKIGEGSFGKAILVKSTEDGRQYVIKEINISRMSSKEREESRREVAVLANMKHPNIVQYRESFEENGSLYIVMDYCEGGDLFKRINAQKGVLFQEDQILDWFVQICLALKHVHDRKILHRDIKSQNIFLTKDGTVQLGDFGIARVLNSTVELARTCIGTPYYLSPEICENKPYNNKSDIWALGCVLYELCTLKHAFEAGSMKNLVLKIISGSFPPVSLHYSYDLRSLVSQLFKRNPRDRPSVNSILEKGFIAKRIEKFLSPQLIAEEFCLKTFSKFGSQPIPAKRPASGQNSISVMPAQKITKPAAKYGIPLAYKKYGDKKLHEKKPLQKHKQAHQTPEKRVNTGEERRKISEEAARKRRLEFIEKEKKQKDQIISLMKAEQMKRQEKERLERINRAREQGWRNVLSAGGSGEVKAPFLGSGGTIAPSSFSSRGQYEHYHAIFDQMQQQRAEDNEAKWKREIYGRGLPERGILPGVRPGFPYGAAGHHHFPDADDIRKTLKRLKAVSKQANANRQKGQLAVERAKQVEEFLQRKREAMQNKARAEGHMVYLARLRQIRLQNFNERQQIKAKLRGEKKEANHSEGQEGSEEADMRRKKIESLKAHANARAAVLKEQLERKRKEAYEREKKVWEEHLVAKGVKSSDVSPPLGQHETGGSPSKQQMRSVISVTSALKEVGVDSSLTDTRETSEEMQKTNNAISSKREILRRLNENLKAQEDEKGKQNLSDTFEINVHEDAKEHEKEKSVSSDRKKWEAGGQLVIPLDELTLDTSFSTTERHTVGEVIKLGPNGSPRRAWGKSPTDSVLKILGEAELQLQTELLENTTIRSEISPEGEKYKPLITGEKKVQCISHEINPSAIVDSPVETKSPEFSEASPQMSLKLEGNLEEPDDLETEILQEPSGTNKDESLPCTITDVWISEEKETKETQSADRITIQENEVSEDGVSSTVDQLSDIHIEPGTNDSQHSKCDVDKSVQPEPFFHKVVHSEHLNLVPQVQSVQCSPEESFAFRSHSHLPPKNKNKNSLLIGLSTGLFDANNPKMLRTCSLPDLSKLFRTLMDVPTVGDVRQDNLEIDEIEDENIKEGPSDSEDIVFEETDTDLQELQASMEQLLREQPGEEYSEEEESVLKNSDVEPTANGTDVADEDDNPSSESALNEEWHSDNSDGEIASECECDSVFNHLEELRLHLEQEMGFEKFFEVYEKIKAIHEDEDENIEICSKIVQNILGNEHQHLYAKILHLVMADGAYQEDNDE
Compound,target or system,test,test system,setting,scale,measurement,result
CN(C)NC(=O)CCC(=O)O,OCI-Ly1,,,"0.5 µM, 120 h",,viability,125%
CC(C)[C@H](N)C(=O)N1CCC[C@H]1B(O)O,Ker-CT CASP1 knockout,"cell death, CellTiter-Glo",,2 µM,,viability,98.2% and 97% and 98.3%
COP(=O)(OC)OC=C(Cl)Cl,MCF-10A,CellTiter-Glo,,concentration not given,"reference: normalised, mean of replicates",viability,105%
C=C[C@@]12CN(C)[C@H]3C[C@]14C(=Nc1ccccc14)[C@@H]1C[C@@H]2[C@@H]3CO1,HT-22,CCK-8,,"up to 100 µM, 24 h",,viability,no effect
N[C@@H]1C[C@H]1c1ccccc1,OCI-Ly1,,,"1 µM, 120 h",,viability,142%
CC[C@H](C)[C@@H]1NC(=O)[C@@H]2CCCN2C(=O)[C@H](CC(C)C)NC(=O)[C@H](CC(C)C)NC(=O)CNC(=O)[C@@H](NC(=O)[C@@H](NC(=O)[C@H](CC(=O)O)NC(=O)CNC(=O)[C@@H](NC(=O)[C@H](C)NC(=O)CNC(=O)[C@H](CCCCN)NC(=O)[C@H](CC(C)C)NC(=O)[C@H](CC(C)C)NC(=O)[C@H](CCCCN)NC(=O)CNC(=O)[C@@H](NC(=O)[C@@H](N)CC(C)C)C(C)C)C(C)C)C(C)C)CSSC[C@@H](C(=O)O)NC1=O,,"RNA-seq, item: Cd24a","mouse, traumatic brain injury model, frontal cortex and hippocampus",dose not given,reference: TBI alone,log2 fold change,-1.91
C[C@@H]1C[C@@H]([C@H](O)CC2CC(=O)NC(=O)C2)C(=O)[C@@H](C)C1,MCF-10A,CellTiter-Glo,,concentration not given,"reference: normalised, mean of replicates",viability,76.1%
c1ccc([C@@H]2C[C@H]2NC2CCNCC2)cc1,OCI-Ly1,,,"1 µM, 120 h",,viability,158%
C[C@H]1CN(c2n[nH]c3nc(N[C@H]4CC[C@H](NS(=O)(=O)CCC(F)(F)F)CC4)ncc23)CCO1,"NEK1 (Homo sapiens, UniProt Q96PY6)","inhibitor, Kinobeads competition profiling",,0.16 µM,reference: vehicle,relative abundance,1.05
COc1cc2c(Oc3ccc4[nH]c(C)cc4c3F)ccnc2cc1OCC1(N)CC1,,,paediatric recurrent refractory sarcoma,8 mg/kg,,grade 1 or 2 Triglyceride elevation,20%
CO[C@H]1C[C@@H]2CC[C@@H](C)[C@@](O)(O2)C(=O)C(=O)N2CCCC[C@H]2C(=O)O[C@H]([C@H](C)C[C@@H]2CC[C@@H](OC(=O)NCCOCCOCCOCCOCCOCCOCCOCCOCCC(=O)N3CCc4cc(Cn5nc(-c6ccc7oc(N)nc7c6)c6c(N)ncnc65)ccc4C3)[C@H](OC)C2)C[C@@H](O)[C@H](C)/C=C(\C)[C@@H](O)[C@@H](OC)C(=O)[C@H](C)C[C@H](C)/C=C/C=C/C=C/1C,,,patients with advanced solid tumours,"intravenous, 16 mg weekly, any grade",,decreased appetite incidence,25%
CCC1=N[C@H]2C[C@@]3(C(=O)N(OC)c4ccccc43)[C@H]3C[C@@H]1[C@@H]2CO3,HT-22,CCK-8,,"up to 100 µM, 24 h",,viability,no effect
Cc1nn(-c2nc3ccc(Cl)c(Cl)c3[nH]2)c(O)c1C1OC(=O)c2ccccc21 (stereo not drawn),RAW-ISG,CCK-8,,10 µM,,viability,96.6% and 98.5% and 113% and 114% and 108%
COC[C@@H]([C@H](O)[C@H](O)C(=O)NCC[C@H](C)c1nc(/C=C/C[C@@H]2O[C@]3(C[C@@H](O)[C@@H]2C)O[C@H]([C@H](C[C@H](O)[C@H](C)[C@H](O)[C@H](C)/C=C(C)/C(C)=C/C=C/C(C)=C\C#N)OC)[C@H](OP(=O)(O)O)C3(C)C)co1)N(C)C,MCF-10A,CellTiter-Glo,,concentration not given,"reference: normalised, mean of replicates",viability,121%
COc1c(CCC[P+](c2ccccc2)(c2ccccc2)c2ccccc2)cc2c(c1OC)OCO2.[I-],HOP-62,SRB,,,,GI50,-5.47 log M

# A few entries again:
Compound,target or system,test,test system,setting,scale,measurement,result
CCC1=N[C@H]2C[C@@]3(C(=O)N(OC)c4ccccc43)[C@H]3C[C@@H]1[C@@H]2CO3,HT-22,CCK-8,,"up to 100 µM, 24 h",,viability,no effect
